Measurements gathered from unrelated publications.
Protocols differ between the studies behind these lines. ± gives the spread as reported. Converted amounts (≈) assume the structure as drawn.

`COCC1CN(C2CCN(c3cc(OC)c(Nc4ncc(Br)c(Nc5ccc6c(c5P(C)(C)=O)OCCO6)n4)cc3C)CC2)C1` — result for “grade ≥3 treatment-related hypertension”: 3.7% (human patients; oral, dose not given).
Under “beta rate constant”, `N=C(N)NCCC[C@@H]1NC(=O)[C@H](Cc2c[nH]c3ccccc23)NC(=O)[C@@H](CC2CCCCC2)NC(=O)[C@@H]2CCCN2C(=O)[C@@H](NC(=O)CCc2ccccc2)CCCNC1=O` is recorded as 0.38 h⁻¹ (two-compartment model; C57BL/6J mice, brain; subcutaneous, 1 mg/kg).
For `COc1cc(NC(C)=O)c2c(c1O)-c1c(OC)c(OC)cc3c1C(C2)N(C)CC3` (centres unmarked), the remaining compound was 87.5 ± 2.4% (rat heart homogenate; 0.5 µg/mL, 40 d, -20 °C, long-term storage).
For `COc1ccc(-c2ccn(CC[C@](C)(C(=O)NO)S(C)(=O)=O)c(=O)c2)c(F)c1`, the free AUC was 5460 ± 770 ng·h/mL (CF-1 mouse, female; subcutaneous, 75 mg/kg).
For `CCCC[C@@H]1NC(=O)[C@@H](NC(=O)[C@H](CCC(=O)O)NC(=O)CNC(=O)CN2CCN(CC(=O)O)CCN(CC(=O)O)CCN(CC(=O)O)CC2)CCCCNC(=O)C[C@@H](C(N)=O)NC(=O)[C@H](C(C)C)NC(=O)[C@@H]2CCCN2C(=O)[C@H](CCCNC(=N)N)NC(=O)CNC(=O)[C@H](Cc2c[nH]c3ccccc23)NC(=O)[C@H](CCCNC(=N)N)NC(=O)[C@@H](Cc2ccccc2)NC(=O)[C@H](Cc2c[nH]cn2)NC(=O)[C@H](CCC(=O)O)NC1=O` [gallium-67 labelled], “tumour to kidney ratio” read 0.24 (C57 mice with B16/F1 melanoma; intravenous, 0.037 MBq/mouse, 24 h; baseline: tumour over kidney).
`Cc1noc(C)c1Cn1cc(N2C(=O)CN(Cc3cccc(O[C@@H]4O[C@H](C(=O)O)[C@@H](O)[C@H](O)[C@H]4O)c3)C2=O)cn1` has an AUC(0-last) of 6050 ng·h/mL (rat Sprague-Dawley male, plasma; oral, 10 mg/kg of parent drug).
The measured concentration of `Oc1ccc2ccccc2c1/N=N/c1ccc(/N=N/c2ccccc2)cc1` is reported as 16.3 µg/L (rat whole blood QC samples; 16.0 µg/L, 8 h, room temperature, short-term stability).
`Cc1cc2c(NC(=O)N[C@@H]3CC(C)(C)Oc4c(OC(F)(F)F)cccc43)cccc2cn1` gave a plasma concentration of 15500 ng/mL (Sprague-Dawley rat, male; oral, 100 µmol/kg, telemetry study).
`Cn1c(=O)oc2ccc(-c3ccc(CC(C#N)NC(=O)C4CNCCCO4)c(F)c3)cc21` (centres unmarked) — result for “triglycerides increased incidence”: 33.3% (human; oral, 40 mg once daily, treatment-related AE, multiple ascending dose).
The thermodynamic solubility of `CCC/C(=C\C1=C(OC)C(=O)c2ccccc2C1=O)C(=O)NOC` is reported as 407 µg/mL (≈ 1240 µM) (aqueous buffer; pH 6.8).
With `C[Si](C)(C[C@@H](CN)CC(=O)O)C1CC1` the performance time was 168 s (neuromuscular coordination; Wistar rat male; oral, 30 mg/kg, 2 h).
`Cc1ccc(OCC(=O)N(Cc2cccs2)c2ccn[nH]2)cc1` gave a Cmax of 41.9 ng/mL (male beagle dog, plasma; oral, 30 mg/kg, single dose).
For `COc1ccc2cc(-c3ccc(-c4ccc(C)cn4)nc3)oc2c1`, “fluorescence quantum yield” read 0.71 (toluene; added: quinine bisulfate reference).
`C[C@H]1C[C@@H](Oc2cccc(F)n2)CCN1Cc1cnc(N[11C](C)=O)s1` gave a radioligand stability of 98.2% (monkey brain homogenate; at least 30 min, room temperature).
The AUC(0-last) ratio of `CCCC(CCC)NC(=O)c1ccc(O)c(O)c1` is reported as 13.8 (male Sprague-Dawley rats, plasma; oral, 50 mg/kg of parent drug; baseline: 50 over 20 mg/kg dose).
`NC[C@@H](C(=O)Nc1ccc(-c2cn[nH]c2)cc1)c1ccccc1` — result for “total eye irritation score”: 0 (OECD 405 eye irritation; New Zealand White rabbit, eye; topical, 0.1%, 80 h (day 4); direction not given).
`COCCOCCOCCOCCOCCOCCOCCOCCOCCOCCOCCOCCOCCOCCOCCOCCOCCOCCOCCOCCOCCOCCNC(=O)CCC1(Cc2ccccc2)c2ccccc2-c2ccc(-c3sc(-c4c5c(c(-c6sc(-c7ccc8c(c7)C(CCC(=O)NCCOCCOCCOCCOCCOCCOCCOCCOCCOCCOCCOCCOCCOCCOCCOCCOCCOCCOCCOCCOCCOCCOC)(Cc7ccccc7)c7ccccc7-8)c7c6OCCO7)c6nsnc46)N=S=N5)c4c3OCCO4)cc21` (centres unmarked) gave a faecal excretion of roughly 80% (KM mice, female, faeces; intravenous, dose not given, 24 h; baseline: dose).
For `COc1cc(OC)cc(C2=C3C(C)=C(I)C(C)=[N+]3[B-](F)(F)n3c(/C=C/c4c[nH]c5ccc([N+](=O)[O-])cc45)c(I)c(C)c32)c1`, the absorption maximum was 622 nm (DMSO).
`C[N+](C)(C)CCO.O=C(O)[C@H](O)Cc1ccccc1.O=C([O-])[C@H](O)Cc1ccccc1` has a pH of 3.86 ± 1.9 (water; concentration not given).
For `C=C(c1ncc(C(=O)O)cn1)c1cc2c(cc1C)C(C)(C)CCC2(C)C`, the LDL level was 6 ± 2.5 mg/dL (Sprague-Dawley rat, male, plasma; oral, 100 mg/kg, 12 h, sesame oil vehicle).
For `CC(C)C[C@H](NC(=O)C[C@H](O)[C@H](CC(C)C)NC(=O)[C@H](Cc1c[nH]cn1)NC(=O)CNC(=O)[C@@H](NC(=O)[C@H](C)NC(=O)[C@H](Cc1c[nH]c2ccccc12)NC(=O)[C@H](CCC(N)=O)NC(=O)[C@@H](Cc1ccccc1)NC(=O)CCNC(=O)CCNC(=O)CN1CCN(CC(=O)O)CCN(CC(=O)O)CCN(CC(=O)O)CC1)C(C)C)C(N)=O` [lutetium-177 labelled], the absorbed dose was 4.4 Gy (MIRD; mouse PC-3 xenograft, pancreas; intraperitoneal, 50 MBq, without PA).
With `CC(=O)N([O-])CCCCCNC(=O)CCC(=O)N([O-])CCCCCNC(=O)CCC(=O)N([O-])CCCCCN.[89Zr+4]` the tracer uptake was 0.17 %ID/g (mouse, bone; 24 h).
For `C[C@H](NC(=O)COC(=O)[C@H](C)NC(=O)CO)C(=O)O`, the depolymerization half-life was 1.8 min (water; pH 7, 50 °C).
`CCCC[C@H](NC(=O)CNC(=O)CNC(=O)CN1CCN(CC(=O)O)CCN(CC(=O)O)CC1)C(=O)N[C@H]1CC(=O)NCCCC[C@@H](C(N)=O)NC(=O)[C@H](Cc2c[nH]c3ccccc23)NC(=O)[C@H](CCCNC(=N)N)NC(=O)[C@@H](Cc2ccccc2)NC(=O)[C@H](Cc2c[nH]cn2)NC1=O` [copper-64 labelled] has an uptake ratio of 12.5 (female C57 mouse, B16/F1 melanoma; intravenous, 0.037 MBq, 4 h; baseline: tumour over stomach).
For `CC1=CC(c2ccccc2)=[O+][Pt-2]([NH3+])([NH3+])[O]1.O=[N+]([O-])[O-]` (centres unmarked), chemical stability read “no effect” (1H NMR; water; up to 25 d, 37 °C).
For `Cc1cc(O)cc(O)c1C(=O)c1c2c3c(c(O)cc(C)c3oc1=O)C(=O)c1c(O)cc(O)cc1-2`, the terminal half-life was 40 min (KM mouse, male, plasma; intraperitoneal, 30 mg/kg).
`CC(C)NC(=O)N1CCC=C(c2cc3c(Nc4cc5ncsc5cc4F)ncnc3s2)C1` gave an intrinsic clearance of less than 12 mL/min/g protein (human liver microsomes; 1 µM).
`[11CH3]c1ccc2nc(C3CCC3)n(-c3ccc4[nH]ncc4c3)c2n1` — result for “absorbed radiation dose”: 3.4 µSv/MBq (standard human adult, pancreas).
`CCCC[C@H](NC(C)=O)C(=O)N[C@H]1CC(=O)NCCCC[C@@H](C(=O)N[C@@H](C(=O)N2CCC[C@@H]2C(N)=O)C(C)C)NC(=O)[C@H](Cc2c[nH]c3ccccc23)NC(=O)[C@H](CCCN=C(N)N)NC(=O)[C@@H](Cc2ccc3ccccc3c2)NC(=O)[C@@H]2CCCN2C1=O` — result for “volume of distribution”: 4240 ± 415 mL (Beagle dog, both sexes, plasma; subcutaneous, once daily, 2.25 mg/kg, day 28).
`O=C([O-])CN1CCN(CC(=O)[O-])CCN(CC(=O)NCC2CCC(C(=O)NC(Cc3ccc4ccccc4c3)C(=O)NCCCCC(NC(=O)NC(CCC(=O)O)C(=O)O)C(=O)O)CC2)CCN(CC(=O)[O-])CC1.[44Sc+3]` (centres unmarked) gave an intact complex of 97.3 ± 0.1% (transchelation stability; 2 h, 37 °C, added: EDTA 10 mM).
`NCC(=O)N1CCC[C@H]1C(=O)N1C[C@H](O)C[C@H]1C(=O)O` has a pKa1 of less than 2 (potentiometric titration; water; 40 °C, 0.15 mol/dm3 NaCl).
The LDL level of `Cc1cc2c(cc1C1(c3ncc(C(=O)O)cn3)CC1)C(C)(C)CCC2(C)C` is reported as 15 ± 4.5 mg/dL (Sprague-Dawley rat, male, plasma; oral, 100 mg/kg, 3 h, sesame oil vehicle).

A few entries again:
For `COc1ccc(-c2ccn(CC[C@](C)(C(=O)NO)S(C)(=O)=O)c(=O)c2)c(F)c1`, the free AUC was 5460 ± 770 ng·h/mL (CF-1 mouse, female; subcutaneous, 75 mg/kg).
The measured concentration of `Oc1ccc2ccccc2c1/N=N/c1ccc(/N=N/c2ccccc2)cc1` is reported as 16.3 µg/L (rat whole blood QC samples; 16.0 µg/L, 8 h, room temperature, short-term stability).
For `Cc1cc(O)cc(O)c1C(=O)c1c2c3c(c(O)cc(C)c3oc1=O)C(=O)c1c(O)cc(O)cc1-2`, the terminal half-life was 40 min (KM mouse, male, plasma; intraperitoneal, 30 mg/kg).
`CCCC[C@H](NC(C)=O)C(=O)N[C@H]1CC(=O)NCCCC[C@@H](C(=O)N[C@@H](C(=O)N2CCC[C@@H]2C(N)=O)C(C)C)NC(=O)[C@H](Cc2c[nH]c3ccccc23)NC(=O)[C@H](CCCN=C(N)N)NC(=O)[C@@H](Cc2ccc3ccccc3c2)NC(=O)[C@@H]2CCCN2C1=O` — result for “volume of distribution”: 4240 ± 415 mL (Beagle dog, both sexes, plasma; subcutaneous, once daily, 2.25 mg/kg, day 28).
`NC[C@@H](C(=O)Nc1ccc(-c2cn[nH]c2)cc1)c1ccccc1` — result for “total eye irritation score”: 0 (OECD 405 eye irritation; New Zealand White rabbit, eye; topical, 0.1%, 80 h (day 4); direction not given).
